Published values from different studies.
Each numbered part is a random draw from the data of one study; scales do not carry over between parts.
Chain of UniProt P22607 (whole entry, unmodified, looked up): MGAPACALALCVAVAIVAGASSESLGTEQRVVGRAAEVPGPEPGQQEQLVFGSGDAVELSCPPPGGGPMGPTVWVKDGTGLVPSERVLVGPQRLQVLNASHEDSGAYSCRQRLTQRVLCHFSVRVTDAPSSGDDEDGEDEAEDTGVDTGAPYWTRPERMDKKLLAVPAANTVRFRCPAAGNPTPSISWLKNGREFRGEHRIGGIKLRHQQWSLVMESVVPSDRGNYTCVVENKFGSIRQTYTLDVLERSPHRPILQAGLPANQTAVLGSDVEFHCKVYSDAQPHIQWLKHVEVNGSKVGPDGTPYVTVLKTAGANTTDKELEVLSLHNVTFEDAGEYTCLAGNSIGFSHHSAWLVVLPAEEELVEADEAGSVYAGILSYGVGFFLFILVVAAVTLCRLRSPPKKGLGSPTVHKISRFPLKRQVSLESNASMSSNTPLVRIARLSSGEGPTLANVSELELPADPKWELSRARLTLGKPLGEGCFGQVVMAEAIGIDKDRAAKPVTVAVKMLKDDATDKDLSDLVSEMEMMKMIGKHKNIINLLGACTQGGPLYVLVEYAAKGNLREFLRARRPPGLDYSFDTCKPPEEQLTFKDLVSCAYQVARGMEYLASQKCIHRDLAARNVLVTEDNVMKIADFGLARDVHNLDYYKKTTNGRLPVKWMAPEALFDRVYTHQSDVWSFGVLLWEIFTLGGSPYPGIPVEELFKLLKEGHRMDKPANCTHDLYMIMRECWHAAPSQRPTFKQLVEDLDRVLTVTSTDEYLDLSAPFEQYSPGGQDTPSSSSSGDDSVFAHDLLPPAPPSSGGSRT
Chain of UniProt Q8NFD2 (whole entry, looked up): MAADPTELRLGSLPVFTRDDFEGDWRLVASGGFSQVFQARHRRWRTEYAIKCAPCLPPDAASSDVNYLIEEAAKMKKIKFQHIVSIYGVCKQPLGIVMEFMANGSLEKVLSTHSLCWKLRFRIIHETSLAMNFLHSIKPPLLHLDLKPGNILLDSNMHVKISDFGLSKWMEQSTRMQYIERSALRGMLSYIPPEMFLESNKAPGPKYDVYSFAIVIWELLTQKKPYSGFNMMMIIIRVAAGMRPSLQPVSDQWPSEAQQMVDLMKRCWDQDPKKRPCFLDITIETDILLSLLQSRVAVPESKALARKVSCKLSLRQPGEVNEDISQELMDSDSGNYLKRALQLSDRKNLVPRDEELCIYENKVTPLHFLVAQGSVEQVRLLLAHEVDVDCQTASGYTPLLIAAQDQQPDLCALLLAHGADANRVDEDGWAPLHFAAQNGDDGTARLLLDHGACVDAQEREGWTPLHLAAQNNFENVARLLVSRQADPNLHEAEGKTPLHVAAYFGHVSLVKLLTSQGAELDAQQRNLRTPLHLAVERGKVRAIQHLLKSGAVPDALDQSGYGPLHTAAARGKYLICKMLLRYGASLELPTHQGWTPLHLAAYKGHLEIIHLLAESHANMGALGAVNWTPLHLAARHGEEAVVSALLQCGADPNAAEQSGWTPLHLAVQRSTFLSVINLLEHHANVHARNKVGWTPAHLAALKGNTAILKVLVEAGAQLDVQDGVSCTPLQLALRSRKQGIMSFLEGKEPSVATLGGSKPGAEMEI
Chain of UniProt P23443 (whole entry, looked up): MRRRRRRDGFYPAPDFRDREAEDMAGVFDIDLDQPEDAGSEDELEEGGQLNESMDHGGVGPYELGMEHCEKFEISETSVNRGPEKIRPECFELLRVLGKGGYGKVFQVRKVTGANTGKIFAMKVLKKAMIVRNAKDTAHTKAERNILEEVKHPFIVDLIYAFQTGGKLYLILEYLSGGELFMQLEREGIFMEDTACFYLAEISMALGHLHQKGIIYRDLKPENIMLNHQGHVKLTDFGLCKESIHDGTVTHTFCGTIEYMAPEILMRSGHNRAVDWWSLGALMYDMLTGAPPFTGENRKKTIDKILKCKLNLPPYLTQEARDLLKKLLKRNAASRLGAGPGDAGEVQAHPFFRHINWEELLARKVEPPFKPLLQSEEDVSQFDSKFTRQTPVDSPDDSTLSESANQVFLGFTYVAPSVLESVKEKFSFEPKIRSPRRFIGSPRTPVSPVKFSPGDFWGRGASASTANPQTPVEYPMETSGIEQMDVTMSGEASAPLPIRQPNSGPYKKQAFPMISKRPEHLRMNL
Chain of UniProt Q13153 (whole entry, looked up): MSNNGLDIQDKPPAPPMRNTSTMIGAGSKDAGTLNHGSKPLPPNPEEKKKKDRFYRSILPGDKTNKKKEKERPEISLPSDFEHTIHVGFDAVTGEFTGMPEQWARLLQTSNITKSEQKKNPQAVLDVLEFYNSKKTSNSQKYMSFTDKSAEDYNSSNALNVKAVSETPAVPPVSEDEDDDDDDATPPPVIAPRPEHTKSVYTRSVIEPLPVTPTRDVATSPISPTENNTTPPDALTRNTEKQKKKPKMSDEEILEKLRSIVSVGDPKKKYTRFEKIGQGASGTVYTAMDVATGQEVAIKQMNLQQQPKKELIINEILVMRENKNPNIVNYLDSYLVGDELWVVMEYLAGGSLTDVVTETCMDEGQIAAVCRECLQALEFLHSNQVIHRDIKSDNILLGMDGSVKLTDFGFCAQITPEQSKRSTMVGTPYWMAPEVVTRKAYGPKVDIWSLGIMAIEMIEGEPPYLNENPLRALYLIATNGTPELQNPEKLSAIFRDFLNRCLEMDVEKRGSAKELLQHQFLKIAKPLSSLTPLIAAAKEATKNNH
Chain of UniProt P10721 (whole entry, unmodified, looked up): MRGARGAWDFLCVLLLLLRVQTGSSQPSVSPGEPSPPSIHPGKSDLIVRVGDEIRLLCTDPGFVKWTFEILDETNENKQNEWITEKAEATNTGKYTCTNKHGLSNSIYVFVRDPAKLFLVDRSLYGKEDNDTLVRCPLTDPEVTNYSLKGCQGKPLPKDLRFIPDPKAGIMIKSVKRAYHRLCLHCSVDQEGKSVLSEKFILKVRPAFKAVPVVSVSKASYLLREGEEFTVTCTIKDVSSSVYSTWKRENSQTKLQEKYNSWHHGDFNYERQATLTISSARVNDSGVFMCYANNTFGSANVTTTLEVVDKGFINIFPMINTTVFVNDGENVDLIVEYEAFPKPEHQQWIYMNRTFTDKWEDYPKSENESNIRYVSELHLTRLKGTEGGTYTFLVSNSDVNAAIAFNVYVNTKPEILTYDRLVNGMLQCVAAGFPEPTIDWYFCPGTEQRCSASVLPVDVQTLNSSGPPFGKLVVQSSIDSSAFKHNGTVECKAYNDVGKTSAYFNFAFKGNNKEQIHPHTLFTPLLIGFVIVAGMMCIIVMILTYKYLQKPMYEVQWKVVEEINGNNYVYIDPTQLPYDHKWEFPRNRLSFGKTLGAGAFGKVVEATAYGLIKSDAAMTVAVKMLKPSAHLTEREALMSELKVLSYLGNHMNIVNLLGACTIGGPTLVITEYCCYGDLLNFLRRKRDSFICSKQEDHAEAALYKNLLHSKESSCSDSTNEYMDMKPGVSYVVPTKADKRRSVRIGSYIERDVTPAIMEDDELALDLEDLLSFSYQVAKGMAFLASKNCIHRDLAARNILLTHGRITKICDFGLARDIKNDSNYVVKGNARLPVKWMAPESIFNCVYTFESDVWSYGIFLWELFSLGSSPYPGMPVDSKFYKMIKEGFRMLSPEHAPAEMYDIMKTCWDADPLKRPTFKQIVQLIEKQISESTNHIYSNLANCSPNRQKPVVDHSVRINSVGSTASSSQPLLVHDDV
Chain of UniProt P52333 (whole entry, looked up): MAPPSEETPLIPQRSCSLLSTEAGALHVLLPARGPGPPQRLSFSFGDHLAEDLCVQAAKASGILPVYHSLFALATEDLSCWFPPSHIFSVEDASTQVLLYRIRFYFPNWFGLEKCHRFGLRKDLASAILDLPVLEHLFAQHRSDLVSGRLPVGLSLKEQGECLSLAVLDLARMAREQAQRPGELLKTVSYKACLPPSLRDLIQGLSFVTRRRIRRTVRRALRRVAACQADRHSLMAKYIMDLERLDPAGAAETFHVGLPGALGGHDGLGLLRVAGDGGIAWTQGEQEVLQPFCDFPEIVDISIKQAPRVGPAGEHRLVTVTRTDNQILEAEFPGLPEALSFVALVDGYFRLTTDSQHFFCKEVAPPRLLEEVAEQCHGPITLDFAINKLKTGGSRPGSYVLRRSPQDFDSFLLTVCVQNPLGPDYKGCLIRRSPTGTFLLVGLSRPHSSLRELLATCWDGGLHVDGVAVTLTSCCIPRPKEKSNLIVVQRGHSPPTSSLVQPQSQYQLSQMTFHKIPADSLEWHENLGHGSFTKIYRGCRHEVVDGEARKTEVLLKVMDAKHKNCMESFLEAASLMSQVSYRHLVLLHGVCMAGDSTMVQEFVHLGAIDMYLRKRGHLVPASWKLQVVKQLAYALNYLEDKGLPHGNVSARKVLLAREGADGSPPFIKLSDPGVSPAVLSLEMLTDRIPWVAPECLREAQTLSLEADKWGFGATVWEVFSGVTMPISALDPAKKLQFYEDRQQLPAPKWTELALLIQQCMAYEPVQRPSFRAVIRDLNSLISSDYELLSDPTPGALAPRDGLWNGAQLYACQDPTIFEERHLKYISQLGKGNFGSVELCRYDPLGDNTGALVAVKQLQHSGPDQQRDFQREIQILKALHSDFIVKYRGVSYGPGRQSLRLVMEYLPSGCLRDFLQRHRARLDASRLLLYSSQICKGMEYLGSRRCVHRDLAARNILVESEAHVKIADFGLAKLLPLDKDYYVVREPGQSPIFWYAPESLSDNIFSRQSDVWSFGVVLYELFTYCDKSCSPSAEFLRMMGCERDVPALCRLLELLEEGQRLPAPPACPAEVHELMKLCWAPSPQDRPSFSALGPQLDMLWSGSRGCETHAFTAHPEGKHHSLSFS

Study 1 — effect on: enzyme activity; action: inhibitor; tested at: 0.5 µM; baseline: control
Target: Casein kinase I isoform alpha (CSNK1A1, Homo sapiens, UniProt P48729)
Chain of UniProt P48729 (whole entry, looked up): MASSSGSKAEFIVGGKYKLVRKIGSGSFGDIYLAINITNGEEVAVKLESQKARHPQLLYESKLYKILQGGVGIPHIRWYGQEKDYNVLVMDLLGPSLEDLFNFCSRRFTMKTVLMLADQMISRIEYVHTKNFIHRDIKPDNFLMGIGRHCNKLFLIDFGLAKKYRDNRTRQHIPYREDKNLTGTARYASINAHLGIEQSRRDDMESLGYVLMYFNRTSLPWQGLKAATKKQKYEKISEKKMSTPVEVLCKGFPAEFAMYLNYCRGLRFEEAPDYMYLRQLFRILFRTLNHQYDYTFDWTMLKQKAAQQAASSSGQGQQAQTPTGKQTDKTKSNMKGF
With CN(C)C[C@H]1CCn2c(c(C3=C(c4cn(C)c5ccccc45)C(=O)NC3=O)c3ccccc32)C1 the remaining activity was 98.5%.
CN([C@@H](Cc1ccc(OS(=O)(=O)c2cccc3cnccc23)cc1)C(=O)N1CCN(c2ccccc2)CC1)S(=O)(=O)c1cccc2cnccc12 gave a remaining activity of 99%.
O=C1C(Cl)=C(N2C(=O)CCC2=O)C(=O)c2ccccc21 gave a remaining activity of 99.2%.
With CCN(CC)CCNC(=O)c1c(C)[nH]c(/C=C2\C(=O)Nc3ccc(Cl)cc32)c1C the remaining activity was 75.7%.
c1ccc(-c2[nH]ncc2-c2ccnc3ccccc23)nc1 gave a remaining activity of 74.6%.
For Cc1cc2ncc(-c3ccccc3)nc2cc1C, the remaining activity was 95.4%.
With COc1cc2ncnc(Nc3ccc(O)c(Br)c3)c2cc1OC the remaining activity was 89.6%.
O=c1cc(-c2cccc3c2Sc2ccccc2S3)oc(N2CCOCC2)c1 has a remaining activity of 94.9%.
For C[C@@H]1CCN(C(=O)CC#N)C[C@@H]1N(C)c1ncnc2[nH]ccc12, the remaining activity was 99.7%.
Ic1cccc(CSc2nnc(-c3ccncc3)o2)c1 gave a remaining activity of 97%.
With CCN(CC)C(=O)c1ccc(Nc2nc(OCC3CCCCC3)c3[nH]cnc3n2)cc1 the remaining activity was 104%.
COc1cc2ncnc(Nc3cccc(Cl)c3)c2cc1OC gave a remaining activity of 92.5%.
For c1ccc(-c2cnc(Nc3ccc(OCCN4CCCC4)cc3)s2)cc1, the remaining activity was 86.7%.
For O=C(Nc1cccc(Nc2nccc(Nc3cccc(C(F)(F)F)c3)n2)c1)C1CC1, the remaining activity was 95.8%.
O=C(NC(NC(=S)Nc1ccc(F)c([N+](=O)[O-])c1)C(Cl)(Cl)Cl)C(c1ccccc1)c1ccccc1 (stereo not drawn) gave a remaining activity of 94.1%.
With N#C/C(=C\c1ccc(O)c(O)c1)C(=O)NCc1ccccc1 the remaining activity was 110%.
The remaining activity of Cc1cn(-c2cc(NC(=O)c3ccc(C)c(Nc4nccc(-c5cccnc5)n4)c3)cc(C(F)(F)F)c2)cn1 is reported as 101%.
Cn1nc2c3c(cccc31)C(=O)c1ccccc1-2 has a remaining activity of 47.8%.
With Nc1cccc(-c2cc3c(Oc4cccc(O)c4)ncnc3[nH]2)c1 the remaining activity was 61.8%.
The remaining activity of Cc1nc2cc3nc(-c4cccs4)cnc3cc2n1C is reported as 96.7%.
The remaining activity of N#Cc1c(NC(=O)c2cccc3ccccc23)sc2c1CCCC2 is reported as 91.1%.
O=C1c2ccccc2-c2n[nH]c3cccc1c23 has a remaining activity of 47.9%.

Study 2 — tested at: 1 µM
Compound: CN1CCN(C(=O)c2ccc(NC(=O)Nc3ccc(N(C)c4ccnc(Nc5ccc(CS(C)(=O)=O)cc5)n4)cc3)cc2)CC1
For Fibroblast growth factor receptor 3 (FGFR3, Homo sapiens, UniProt P22607, G697C); competitive binding panel; baseline: vehicle: remaining binding read 100%.
It gave 25% for remaining binding (Mitogen-activated protein kinase kinase kinase kinase 3 (MAP4K3, Homo sapiens, UniProt Q8IVH8); competitive binding panel; baseline: vehicle).
It gave 72% for remaining binding (Cyclin-dependent kinase-like 3 (CDKL3, Homo sapiens, UniProt Q8IVW4); competitive binding panel; baseline: vehicle).
It gave 100% for remaining binding (Ephrin type-B receptor 3 (EPHB3, Homo sapiens, UniProt P54753); competitive binding panel; baseline: vehicle).
Cyclin-dependent kinase 4 (CDK4, Homo sapiens, UniProt P11802); competitive binding panel; baseline: vehicle — remaining binding: 83%.
For Serine/threonine-protein kinase Nek9 (NEK9, Homo sapiens, UniProt Q8TD19); competitive binding panel; baseline: vehicle: remaining binding read 62%.
For Phosphatidylinositol 5-phosphate 4-kinase type-2 beta (PIP4K2B, Homo sapiens, UniProt P78356); competitive binding panel, item: PIP5K2B; baseline: vehicle: remaining binding read 17%.
Serine/threonine-protein kinase PAK 1 (PAK1, Homo sapiens, UniProt Q13153); competitive binding panel; baseline: vehicle — remaining binding: 92%.
It gave 100% for remaining binding (Phosphatidylinositol 4,5-bisphosphate 3-kinase catalytic subunit beta isoform (PIK3CB, Homo sapiens, UniProt P42338); competitive binding panel; baseline: vehicle).
It gave 28% for remaining binding (Ankyrin repeat and protein kinase domain-containing protein 1 (ANKK1, Homo sapiens, UniProt Q8NFD2); competitive binding panel; baseline: vehicle).
It gave 76% for remaining binding (Serine/threonine-protein kinase TAO2 (TAOK2, Homo sapiens, UniProt Q9UL54); competitive binding panel; baseline: vehicle).
It gave 19% for remaining binding (Mitogen-activated protein kinase 9 (MAPK9, Homo sapiens, UniProt P45984); competitive binding; JNK2).
The remaining binding was 89% (Serine/threonine-protein kinase B-raf (BRAF, Homo sapiens, UniProt P15056); competitive binding panel; baseline: vehicle).
It gave 66% for remaining binding (Serine/threonine-protein kinase Nek3 (NEK3, Homo sapiens, UniProt P51956); competitive binding panel; baseline: vehicle).
Mitogen-activated protein kinase 14 (MAPK14, Homo sapiens, UniProt Q16539); competitive binding; p38-alpha — remaining binding: 83%.
The remaining binding was 59% (Serine/threonine-protein kinase LATS2 (LATS2, Homo sapiens, UniProt Q9NRM7); competitive binding panel; baseline: vehicle).

Study 3 — action: inhibitor; tested at: 1 µM
SMILES: C=CC(=O)N1CCC[C@@H](n2nc(-c3ccc(Oc4ccccc4)cc3)c3c(N)ncnc32)C1
For Ribosomal protein S6 kinase beta-1 (RPS6KB1, Homo sapiens, UniProt P23443); enzyme activity: inhibition read 20%.
It gave 85% for inhibition (Tyrosine-protein kinase Lyn (LYN, Homo sapiens, UniProt P07948); enzyme activity).
For Mitogen-activated protein kinase kinase kinase 3 (MAP3K3, Homo sapiens, UniProt Q99759): inhibition read 30%.
Phosphatidylinositol 4,5-bisphosphate 3-kinase catalytic subunit alpha isoform (PIK3CA, Homo sapiens, UniProt P42336, E545A); enzyme activity — inhibition: 0%.
For Membrane-associated tyrosine- and threonine-specific cdc2-inhibitory kinase (PKMYT1, Homo sapiens, UniProt Q99640); enzyme activity: inhibition read 0%.
For Phosphatidylinositol 4-phosphate 5-kinase type-1 alpha (PIP5K1A, Homo sapiens, UniProt Q99755); enzyme activity: inhibition read 24%.
Receptor-type tyrosine-protein kinase FLT3, ITD (FLT3, Homo sapiens, UniProt P36888) — inhibition: 37%.
The inhibition was 67% (Platelet-derived growth factor receptor alpha (PDGFRA, Homo sapiens, UniProt P16234); enzyme activity).
The inhibition was 96% (Receptor-interacting serine/threonine-protein kinase 2 (RIPK2, Homo sapiens, UniProt O43353); enzyme activity).
For Dual specificity mitogen-activated protein kinase kinase 2 (MAP2K2, Homo sapiens, UniProt P36507); enzyme activity: inhibition read 81%.

Study 4 — technique: competition with immobilised ligand; tested at: 0.1 µM
SMILES: CS(=O)(=O)N1CCCC(NC(=O)[C@H](CCC2CCCCC2)NC(=O)c2ccc(CNc3ncnc4c3nnn4-c3ccccc3)cc2)C1 (stereo partly drawn)
The remaining binding was 100% (Interleukin-1 receptor-associated kinase 1 (IRAK1, Homo sapiens, UniProt P51617); cell-free assay).
The remaining binding was 68% (Mast/stem cell growth factor receptor Kit (KIT, Homo sapiens, UniProt P10721, D816H); cell-free assay).
Rhodopsin kinase GRK7 (GRK7, Homo sapiens, UniProt Q8WTQ7); cell-free assay — remaining binding: 100%.
It gave 77% for remaining binding (Tyrosine-protein kinase TXK (TXK, Homo sapiens, UniProt P42681); binding).
The remaining binding was 100% (Tyrosine-protein kinase JAK3, JH1 (JAK3, Homo sapiens, UniProt P52333); cell-free assay).
The remaining binding was 74% (Mitogen-activated protein kinase kinase kinase 15 (MAP3K15, Homo sapiens, UniProt Q6ZN16); cell-free assay).
The remaining binding was 100% (Insulin receptor (INSR, Homo sapiens, UniProt P06213); cell-free assay).
For Cyclin-dependent kinase 15 (CDK15, Homo sapiens, UniProt Q96Q40); cell-free assay: remaining binding read 74%.
It gave 66% for remaining binding (Mitogen-activated protein kinase kinase kinase kinase 4 (MAP4K4, Homo sapiens, UniProt O95819); cell-free assay).
For Tyrosine-protein kinase ABL1, phosphorylated (ABL1, Homo sapiens, UniProt P00519, H396P); cell-free assay: remaining binding read 100%.
For Phosphatidylinositol 4,5-bisphosphate 3-kinase catalytic subunit gamma isoform (PIK3CG, Homo sapiens, UniProt P48736); cell-free assay: remaining binding read 85%.
The remaining binding was 100% (Myosin-IIIb (MYO3B, Homo sapiens, UniProt Q8WXR4); binding).
For Serine/threonine-protein kinase 32B (STK32B, Homo sapiens, UniProt Q9NY57); cell-free assay: remaining binding read 65%.
The remaining binding was 98% (Hepatocyte growth factor receptor (MET, Homo sapiens, UniProt P08581, Y1235D); cell-free assay).
The remaining binding was 100% (Serine/threonine-protein kinase WNK4 (WNK4, Homo sapiens, UniProt Q96J92); cell-free assay).
It gave 85% for remaining binding (Dual specificity protein kinase CLK3 (CLK3, Homo sapiens, UniProt P49761); cell-free assay).
Proto-oncogene tyrosine-protein kinase Src (SRC, Homo sapiens, UniProt P12931); cell-free assay — remaining binding: 94%.
For Ephrin type-B receptor 6 (EPHB6, Homo sapiens, UniProt O15197); cell-free assay: remaining binding read 100%.
The remaining binding was 80% (Ankyrin repeat and protein kinase domain-containing protein 1 (ANKK1, Homo sapiens, UniProt Q8NFD2); cell-free assay).
Muscle, skeletal receptor tyrosine-protein kinase (MUSK, Homo sapiens, UniProt O15146); cell-free assay — remaining binding: 100%.
Fibroblast growth factor receptor 3 (FGFR3, Homo sapiens, UniProt P22607, G697C); cell-free assay — remaining binding: 83%.

Repeated from above (study 3):
For Phosphatidylinositol 4-phosphate 5-kinase type-1 alpha (PIP5K1A, Homo sapiens, UniProt Q99755); enzyme activity: inhibition read 24%.
Receptor-type tyrosine-protein kinase FLT3, ITD (FLT3, Homo sapiens, UniProt P36888) — inhibition: 37%.
The inhibition was 96% (Receptor-interacting serine/threonine-protein kinase 2 (RIPK2, Homo sapiens, UniProt O43353); enzyme activity).
For Membrane-associated tyrosine- and threonine-specific cdc2-inhibitory kinase (PKMYT1, Homo sapiens, UniProt Q99640); enzyme activity: inhibition read 0%.
It gave 85% for inhibition (Tyrosine-protein kinase Lyn (LYN, Homo sapiens, UniProt P07948); enzyme activity).
Phosphatidylinositol 4,5-bisphosphate 3-kinase catalytic subunit alpha isoform (PIK3CA, Homo sapiens, UniProt P42336, E545A); enzyme activity — inhibition: 0%.
For Dual specificity mitogen-activated protein kinase kinase 2 (MAP2K2, Homo sapiens, UniProt P36507); enzyme activity: inhibition read 81%.
For Ribosomal protein S6 kinase beta-1 (RPS6KB1, Homo sapiens, UniProt P23443); enzyme activity: inhibition read 20%.
